Measured values pooled from the literature.
Numbered parts are unrelated; each lists some results of a single study.
Chain of UniProt P42336 (whole entry, looked up): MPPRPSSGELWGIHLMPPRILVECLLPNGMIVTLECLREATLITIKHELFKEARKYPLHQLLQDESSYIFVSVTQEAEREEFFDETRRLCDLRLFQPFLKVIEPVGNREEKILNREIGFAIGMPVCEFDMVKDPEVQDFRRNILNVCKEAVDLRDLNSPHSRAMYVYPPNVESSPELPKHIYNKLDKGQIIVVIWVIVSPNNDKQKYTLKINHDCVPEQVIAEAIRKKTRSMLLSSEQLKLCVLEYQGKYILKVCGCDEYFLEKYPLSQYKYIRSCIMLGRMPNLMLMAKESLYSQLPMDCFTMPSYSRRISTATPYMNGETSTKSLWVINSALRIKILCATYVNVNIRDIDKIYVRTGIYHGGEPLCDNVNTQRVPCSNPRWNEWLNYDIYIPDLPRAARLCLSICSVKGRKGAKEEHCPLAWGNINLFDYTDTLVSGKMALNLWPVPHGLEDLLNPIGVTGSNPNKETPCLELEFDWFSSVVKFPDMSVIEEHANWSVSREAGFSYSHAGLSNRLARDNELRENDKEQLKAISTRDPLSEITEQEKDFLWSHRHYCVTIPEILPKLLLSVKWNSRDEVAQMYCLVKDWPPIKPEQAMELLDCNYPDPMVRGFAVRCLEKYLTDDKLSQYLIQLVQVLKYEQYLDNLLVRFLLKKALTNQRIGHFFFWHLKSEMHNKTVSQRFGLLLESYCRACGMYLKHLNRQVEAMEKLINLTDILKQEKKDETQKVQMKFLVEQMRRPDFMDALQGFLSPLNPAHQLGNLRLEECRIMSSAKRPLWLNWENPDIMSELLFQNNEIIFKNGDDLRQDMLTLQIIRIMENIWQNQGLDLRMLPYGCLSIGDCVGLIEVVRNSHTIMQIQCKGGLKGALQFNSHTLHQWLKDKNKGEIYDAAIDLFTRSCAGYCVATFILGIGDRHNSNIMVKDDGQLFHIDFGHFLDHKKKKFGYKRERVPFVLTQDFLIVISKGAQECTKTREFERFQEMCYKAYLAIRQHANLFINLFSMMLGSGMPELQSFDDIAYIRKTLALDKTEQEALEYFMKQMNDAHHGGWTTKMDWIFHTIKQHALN
Chain of UniProt P46734 (whole entry, looked up): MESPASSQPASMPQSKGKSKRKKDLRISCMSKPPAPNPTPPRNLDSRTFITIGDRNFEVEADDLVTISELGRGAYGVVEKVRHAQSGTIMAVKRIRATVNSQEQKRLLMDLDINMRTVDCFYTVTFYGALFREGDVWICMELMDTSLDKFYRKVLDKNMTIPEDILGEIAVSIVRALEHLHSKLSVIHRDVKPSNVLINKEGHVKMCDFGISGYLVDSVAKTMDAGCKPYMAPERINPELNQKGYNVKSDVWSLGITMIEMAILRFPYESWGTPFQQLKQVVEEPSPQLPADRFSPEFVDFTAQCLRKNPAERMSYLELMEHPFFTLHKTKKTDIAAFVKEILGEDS
Chain of UniProt Q13163 (whole entry, looked up): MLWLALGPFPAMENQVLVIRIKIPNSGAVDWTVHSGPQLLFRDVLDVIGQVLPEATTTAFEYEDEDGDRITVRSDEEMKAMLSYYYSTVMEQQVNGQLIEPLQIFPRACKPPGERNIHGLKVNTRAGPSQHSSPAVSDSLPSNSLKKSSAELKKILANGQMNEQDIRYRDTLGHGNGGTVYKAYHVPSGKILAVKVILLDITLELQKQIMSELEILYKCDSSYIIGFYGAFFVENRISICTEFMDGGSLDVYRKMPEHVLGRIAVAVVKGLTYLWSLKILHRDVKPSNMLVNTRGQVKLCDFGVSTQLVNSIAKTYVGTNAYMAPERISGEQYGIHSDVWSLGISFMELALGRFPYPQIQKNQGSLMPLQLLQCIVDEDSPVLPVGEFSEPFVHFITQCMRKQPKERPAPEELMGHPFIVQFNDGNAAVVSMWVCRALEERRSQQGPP

Sample 1
Target: Eukaryotic initiation factor 4A-I (EIF4A1, Homo sapiens, UniProt P60842)
Chain of UniProt P60842 (whole entry, looked up): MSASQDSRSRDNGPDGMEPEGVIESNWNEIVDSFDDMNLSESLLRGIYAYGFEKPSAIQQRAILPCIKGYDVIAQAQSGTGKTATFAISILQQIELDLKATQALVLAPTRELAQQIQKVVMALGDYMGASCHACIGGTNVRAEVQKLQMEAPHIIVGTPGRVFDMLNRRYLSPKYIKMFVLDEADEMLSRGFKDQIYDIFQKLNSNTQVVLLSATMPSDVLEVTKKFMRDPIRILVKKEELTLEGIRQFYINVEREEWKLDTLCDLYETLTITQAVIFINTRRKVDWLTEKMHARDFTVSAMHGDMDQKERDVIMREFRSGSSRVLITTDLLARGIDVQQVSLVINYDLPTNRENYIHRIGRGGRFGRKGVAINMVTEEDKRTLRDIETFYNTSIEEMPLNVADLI
Observed: RNA clamping
Technique: fluorescence polarization
Concentration: concentration not given
Notes: mean of two replicates
Together with: FAM-labelled poly r(AG)8 RNA
Endpoint: fluorescence polarization change
COC(=O)[C@H]1[C@@H](O)[C@@]2(O)c3c(OC)cc(OC)cc3N(C)[C@@]2(c2ccc(Br)cc2)[C@@H]1c1ccccc1: 18 mP
C#CCOCCOCCNC(=O)CCCn1c(-c2ccccc2)nc2c(c1=O)[C@@H](c1ccccc1)[C@]1(c3ccc(OC)cc3)Oc3cc(OC)cc(OC)c3[C@]21O: 21 mP
COC(=O)[C@@H]1[C@@H](c2ccccc2)[C@]2(c3ccc(OC)cc3)Oc3cc(OC)cc(OC)c3[C@@]23NC(c2cccnc2)=N[C@@]13O: 34.6 mP
COC(=O)[C@H]1C(=O)[C@@]2(NCCc3scnc3C)c3c(OC)cc(OC)cc3O[C@@]2(c2ccc(OC)cc2)[C@@H]1c1ccccc1: -5.8 mP
CO/N=C(\c1ccco1)[C@H]1[C@@H](O)[C@@]2(O)c3c(OC)cc(OC)cc3O[C@@]2(c2ccc(OC)cc2)[C@@H]1c1ccccc1: 10.3 mP
COC(=O)[C@H]1C(=O)[C@@]2(NCC3CCOCC3)c3c(OC)cc(OC)cc3O[C@@]2(c2ccc(OC)cc2)[C@@H]1c1ccccc1: -5.6 mP
O=C1O[C@H]2[C@@H]1[C@H](c1ccccc1)[C@@]1(c3ccccc3)Oc3ccccc3[C@@]21O: 7.2 mP
C#CCCC(=O)O[C@@H]1[C@H](C(=O)c2ccco2)[C@@H](c2ccccc2)[C@]2(c3ccc(OC)cc3)Oc3cc(OC)cc(OC)c3[C@]12O: 9.7 mP
COC(=O)[C@@H]1[C@@H](c2ccccc2)[C@]2(c3ccc(OC)cc3)Oc3cc(OC)cc(OC)c3[C@@]23N=C(c2ccccc2)N[C@@]13O: 28.4 mP
COc1ccc([C@@]23Oc4cc(OC)c(Cl)c(OC)c4[C@]2(O)c2nc4n(c(=O)c2[C@H]3c2ccccc2)CCC4)cc1: 21.8 mP
COc1ccc([C@@]23Oc4cc(OC)cc(OC)c4[C@]2(O)c2nc(-c4ccccc4)[nH]c(=O)c2/C3=C\Cc2ccccc2)cc1: -3.8 mP
COc1ccc([C@@]23Oc4cc(OC)cc(OC)c4[C@]2(O)[C@H](O)[C@H](C(=O)NOCc2ccccc2)[C@H]3c2ccccc2)cc1: 7.1 mP
COC(=O)[C@H]1[C@@H](O)[C@@]2(O)c3c(OC)cc(OS(=O)(=O)c4ccc(C)cc4)cc3O[C@@]2(c2ccc(OC)cc2)[C@@H]1c1ccccc1: 16.1 mP

Sample 2
Target: PAS domain-containing serine/threonine-protein kinase (PASK, Homo sapiens, UniProt Q96RG2)
Chain of UniProt Q96RG2 (whole entry, looked up): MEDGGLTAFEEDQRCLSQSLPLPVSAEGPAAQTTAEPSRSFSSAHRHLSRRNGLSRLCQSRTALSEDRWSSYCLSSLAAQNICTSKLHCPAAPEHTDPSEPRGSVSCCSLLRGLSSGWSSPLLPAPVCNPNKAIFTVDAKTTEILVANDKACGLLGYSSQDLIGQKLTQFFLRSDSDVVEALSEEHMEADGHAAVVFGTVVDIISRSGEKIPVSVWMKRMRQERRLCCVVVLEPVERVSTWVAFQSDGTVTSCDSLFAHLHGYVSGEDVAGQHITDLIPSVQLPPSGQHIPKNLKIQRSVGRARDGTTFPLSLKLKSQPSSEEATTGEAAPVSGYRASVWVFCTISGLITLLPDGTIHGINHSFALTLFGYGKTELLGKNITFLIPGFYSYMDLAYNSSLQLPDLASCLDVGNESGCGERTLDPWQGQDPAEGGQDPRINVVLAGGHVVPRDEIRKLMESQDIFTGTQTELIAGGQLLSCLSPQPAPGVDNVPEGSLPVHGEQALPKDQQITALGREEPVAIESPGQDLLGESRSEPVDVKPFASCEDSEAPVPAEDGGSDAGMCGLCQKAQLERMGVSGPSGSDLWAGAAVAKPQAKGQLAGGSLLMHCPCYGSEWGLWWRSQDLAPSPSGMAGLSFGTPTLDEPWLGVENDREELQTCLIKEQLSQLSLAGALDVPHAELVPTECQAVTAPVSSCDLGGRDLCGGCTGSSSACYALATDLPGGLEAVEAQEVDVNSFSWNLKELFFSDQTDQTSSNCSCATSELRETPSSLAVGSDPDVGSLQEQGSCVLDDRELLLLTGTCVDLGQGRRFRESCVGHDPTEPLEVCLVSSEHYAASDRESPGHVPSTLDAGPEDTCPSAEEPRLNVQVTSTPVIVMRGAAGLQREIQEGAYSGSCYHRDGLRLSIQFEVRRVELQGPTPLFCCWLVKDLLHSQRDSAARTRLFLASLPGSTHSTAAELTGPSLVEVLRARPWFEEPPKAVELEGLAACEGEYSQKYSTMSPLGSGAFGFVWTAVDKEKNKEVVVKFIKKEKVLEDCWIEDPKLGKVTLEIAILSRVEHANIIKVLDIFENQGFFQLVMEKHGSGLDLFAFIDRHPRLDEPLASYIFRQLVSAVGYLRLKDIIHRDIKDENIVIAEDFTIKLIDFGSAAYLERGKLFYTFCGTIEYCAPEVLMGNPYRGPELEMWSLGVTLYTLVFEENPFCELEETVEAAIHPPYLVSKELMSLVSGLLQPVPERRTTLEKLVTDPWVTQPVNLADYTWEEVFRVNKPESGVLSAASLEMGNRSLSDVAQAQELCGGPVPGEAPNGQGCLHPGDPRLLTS
Observed: enzyme activity
Action: inhibitor
Concentration: 0.5 µM
Relative to: control
Endpoint: remaining activity
COc1cc(Nc2c(C#N)cnc3cc(OCCCN4CCN(C)CC4)c(OC)cc23)c(Cl)cc1Cl: 109%
O=C1NC(=O)C(c2c[nH]c3ccccc23)=C1c1c[nH]c2ccccc12: 90.8%
Nc1nc(Nc2ccc(S(N)(=O)=O)cc2)nn1C(=O)c1c(F)cccc1F: 91.1%
CSc1nc(-c2ccnc(N[C@@H](C)c3ccccc3)c2)c(-c2ccc(F)cc2)[nH]1 (racemic): 95.7%
CCc1[nH]c(-c2ccc(OC)cc2)nc1-c1ccncc1: 96.3%
N#CC(=C(N)Sc1ccc(N)cc1)c1ccccc1C(F)(F)F: 101%
Cc1ccc(NC2=CC(=O)c3sc(C)nc3C2=O)cc1: 89.4%
O=C1Cc2c([nH]c3ccc([N+](=O)[O-])cc23)-c2ccccc2N1: 86.9%
Oc1ccc(Nc2nc(-c3ccc(Cl)cc3)cs2)cc1: 131%
COc1ccc(S(=O)(=O)N(CCO)c2ccccc2CN(C)CC=Cc2ccc(Cl)cc2)cc1: 103%
Fc1ccc(-c2nc3n(c2-c2ccncc2)CCS3)cc1: 109%
CC(C)(C)n1nc(Cc2cccc3ccccc23)c2c(N)ncnc21: 101%
NC(=O)c1ccc(N(C(N)=O)c2c(F)cccc2F)nc1-c1ccc(F)cc1F: 103%
Nc1nccc(-c2c(-c3ccc(F)cc3)ncn2C2CCNCC2)n1: 98.5%
CCCC(=O)Oc1ccc2[nH]c(C(=O)c3cc4ccccc4[nH]3)cc2c1: 88.7%
CC(=O)c1ccc(N2CCOCC2)cc1O: 95%
CC[n+]1c(/C=C/N(C)c2ccccc2)n(-c2ccccc2)c2ccc(-c3nc4ccccc4s3)cc21: 102%
Cc1cncc2cccc(S(=O)(=O)N3CCCN(C(=O)CN)C[C@@H]3C)c12: 105%
Cc1cc(Nc2nc(-c3ccccc3)nc3ccccc23)n[nH]1: 96.4%
Nc1ncnc2c1cnn2-c1ccccc1: 96.8%
O=S(=O)(NCCNC/C=C/c1ccc(Br)cc1)c1cccc2cnccc12: 94.5%

Sample 3
Structure (SMILES): Cc1cc(Nc2nccc(C)n2)cc(-c2cnc([C@@]3(O)CC[C@H](C(=O)O)C(C)(C)C3)s2)c1
Observed: binding
Technique: competition with immobilised ligand
Concentration: 1 µM
Endpoint: remaining binding
MAP2K5 (Homo sapiens, UniProt Q13163): 25.2%
MAP2K3 (Homo sapiens, UniProt P46734): 29.5%
PIK3CA (Homo sapiens, UniProt P42336): 14.7%

Sample 4
SMILES: COc1cc(C(=O)N2CCC(N3CCN(C)CC3)CC2)ccc1Nc1ncc2c(n1)N(C)c1ccccc1C(=O)N2C
Technique: KINOMEscan
Concentration: 10 µM
Reading: lower = stronger binding
Endpoint: binding (% of control)
AMPK-alpha2: 66%
MET: 100%
TEC: 100%
ABL1-phosphorylated: 82%
ABL1(Q252H)-phosphorylated: 100%
SIK: 77%
ABL1(F317L)-phosphorylated: 0.85%
BIKE: 100%
JNK1: 95%
ICK: 90%
JNK3: 77%
ABL1(T315I)-phosphorylated: 58%
TRKC: 100%
IKK-epsilon: 96%
MINK: 77%

For quick reference, copied from above (sample 2):
Nc1nccc(-c2c(-c3ccc(F)cc3)ncn2C2CCNCC2)n1: 98.5%
Cc1ccc(NC2=CC(=O)c3sc(C)nc3C2=O)cc1: 89.4%
Fc1ccc(-c2nc3n(c2-c2ccncc2)CCS3)cc1: 109%
O=S(=O)(NCCNC/C=C/c1ccc(Br)cc1)c1cccc2cnccc12: 94.5%
Nc1nc(Nc2ccc(S(N)(=O)=O)cc2)nn1C(=O)c1c(F)cccc1F: 91.1%
CCCC(=O)Oc1ccc2[nH]c(C(=O)c3cc4ccccc4[nH]3)cc2c1: 88.7%
CC(C)(C)n1nc(Cc2cccc3ccccc23)c2c(N)ncnc21: 101%
